Measured values from different studies.
Each line is one published result; not all experiments were run side by side. Values joined by “and” are separate records of one study, mostly repeats; a detail may differ.
Cell line: SK-MEL-28

CCN(CC)c1ccc(C=NNC(=O)CSc2nc3ccccc3c(=O)n2Cc2ccc(S(N)(=O)=O)cc2)c(O)c1
TGI (NCI five-dose screen): > 100 µM

CCCCN1CCN(c2ccc3[nH]c(-c4ccc5[nH]c(-c6ccc(C(F)(F)F)cc6)nc5c4)nc3c2)CC1
growth percent (SRB; 10 µM, 48 h): -88.3%

[Cl-].[Cl-].[Ru+2].c1cnc2c(c1)ccc1cccnc12.c1cnc2c(c1)ccc1cccnc12.c1csc(-c2nc3c4cccnc4c4ncccc4c3[nH]2)c1
phototherapeutic index (normoxia, with: visible light 100 J/cm2; baseline: dark EC50 over light EC50): ~200

CCOc1ccc(-c2nc3cc(-c4nc5cc(N6CCN(C)CC6)ccc5[nH]4)ccc3[nH]2)cc1OCC
growth percent (SRB; 10 µM, 48 h): -27.2%

[Cl-].[Cl-].[Ru+2].c1cnc2c(c1)ccc1cccnc12.c1cnc2c(c1)ccc1cccnc12.c1csc(-c2ccc(-c3ccc(-c4nc5c6cccnc6c6ncccc6c5[nH]4)s3)s2)c1
EC50 (resazurin viability; normoxia, with: green light 523 nm): 0.3 µM

Cc1cc(=O)[nH]c(=O)n1Cc1cn(-c2c3ccccc3nc3ccccc23)nn1
growth percentage (NCI60 single-dose screen; 10 µM): 75.6%

COc1cnc2cccc(N3CCc4c(cc(Cn5ccnc5C)cc4-c4cn(C)nc4C(F)(F)F)C3=O)c2c1
EC50 (cell growth, inhibitor; 120 h): 0.13 µM

CCCN1CCN(c2ccc3nc(-c4ccc5nc(-c6cc(OC)ccc6OC)[nH]c5c4)[nH]c3c2)CC1
growth percent (SRB; 10 µM, 48 h): 99.4%

CCOC(=O)CSc1nc(-c2ccc(Cl)cc2)c2c(NC(=O)c3ccccc3)nnc-2[nH]1
cell growth (SRB; 10 µM, NCI60 single-dose screen; baseline: untreated): 102%

[Cl-].[Cl-].[Ru+2].c1cnc2c(c1)ccc1cccnc12.c1cnc2c(c1)ccc1cccnc12.c1csc(-c2ccc(-c3ccc(-c4ccc(-c5nc6c7cccnc7c7ncccc7c6[nH]5)s4)s3)s2)c1
EC50 (resazurin viability; dark, hypoxia 1% O2): < 100 µM

O=C1NC(c2ccccc2)(c2ccccc2)C(=O)N1Cc1cn(-c2cc3ccccc3oc2=O)nn1
growth percentage (NCI60 single-dose screen; 10 µM): 111%

Cc1cc(C)n(-c2nc(-c3ccc(Cl)cc3)c3c(NC(=O)c4ccccc4)nnc-3[nH]2)n1
cell growth (SRB; 10 µM, NCI60 single-dose screen; baseline: untreated): 104%

CCCCN1CCN(c2ccc3[nH]c(-c4ccc5[nH]c(-c6ccc(OCC)c(OCC)c6)nc5c4)nc3c2)CC1
growth percent (SRB; 10 µM, 48 h): 45.8%

CSc1nc(-c2ccc(Cl)cc2)c2c(NC(=O)c3ccccc3)nnc-2[nH]1
cell growth (SRB; 10 µM, NCI60 single-dose screen; baseline: untreated): 106%

C#C[C@@]1(O)[C@@H](CO)O[C@@H](n2cc(Br)c3c(N)ncnc32)[C@@H]1O
TGI (SRB; NCI-60 screen): 48.1 µM and 30.2 µM

CCn1cc(-c2cc(Cn3ccoc3=N)cc3c2CCN([C@@H](C)c2cc(OC)ccn2)C3=O)c(C(F)(F)F)n1
EC50 (cell growth, inhibitor; 120 h): 0.496 µM

C#C[C@@]1(O)[C@@H](CO)O[C@@H](n2ccc3c(N)ncnc32)[C@@H]1O
TGI (SRB; NCI-60 screen): 20.2 µM

CCCN1CCN(c2ccc3[nH]c(-c4ccc5[nH]c(-c6ccc(OCC)c(OCC)c6)nc5c4)nc3c2)CC1
growth percent (SRB; 10 µM, 48 h): -86.6%

Cc1cc(=O)[nH]c(=O)n1Cc1cn(-c2cc3ccccc3oc2=O)nn1
growth percentage (NCI60 single-dose screen; 10 µM): 110%

Cc1cc(=O)[nH]n1-c1nc(-c2ccc(Cl)cc2)c2c(NC(=O)c3ccccc3)nnc-2[nH]1
cell growth (SRB; 10 µM, NCI60 single-dose screen; baseline: untreated): 92.6%

COc1ccc(OC)c(-c2nc3ccc(-c4nc5ccc(N6CCN(C)CC6)cc5[nH]4)cc3[nH]2)c1
growth percent (SRB; 10 µM, 48 h): 98.4%

NNc1nc(-c2ccc(Cl)cc2)c2c(NC(=O)c3ccccc3)nnc-2[nH]1
cell growth (SRB; 10 µM, NCI60 single-dose screen; baseline: untreated): 106%

Cn1cncc1C1=CN(c2ncnc3[nH]cnc23)CCS1
GI50 (melanoma cell line): 25.1 µM

Cc1cc(-c2ccccc2)n(-c2nc(-c3ccc(Cl)cc3)c3c(NC(=O)c4ccccc4)nnc-3[nH]2)n1
cell growth (SRB; 10 µM, NCI60 single-dose screen; baseline: untreated): 96.2%

[Cl-].[Cl-].[Ru+2].c1cnc2c(c1)c1nc[nH]c1c1cccnc12.c1cnc2c(c1)ccc1cccnc12.c1cnc2c(c1)ccc1cccnc12
phototherapeutic index (normoxia, with: visible light 100 J/cm2; baseline: dark EC50 over light EC50): > 40
